Measurements from different studies.
Numbered parts are unrelated; each lists some results of a single study.

Study 1 — technique: universal PBM; form: double-stranded DNA, one strand shown; medium: in vitro; tested at: 600 nM; direction: higher = stronger binding
Target: Sal-like protein 4, full length isoform A (SALL4, Homo sapiens, UniProt Q9UJQ4, residues 1-1053)
UniProt Q9UJQ4, sequence (whole entry, looked up): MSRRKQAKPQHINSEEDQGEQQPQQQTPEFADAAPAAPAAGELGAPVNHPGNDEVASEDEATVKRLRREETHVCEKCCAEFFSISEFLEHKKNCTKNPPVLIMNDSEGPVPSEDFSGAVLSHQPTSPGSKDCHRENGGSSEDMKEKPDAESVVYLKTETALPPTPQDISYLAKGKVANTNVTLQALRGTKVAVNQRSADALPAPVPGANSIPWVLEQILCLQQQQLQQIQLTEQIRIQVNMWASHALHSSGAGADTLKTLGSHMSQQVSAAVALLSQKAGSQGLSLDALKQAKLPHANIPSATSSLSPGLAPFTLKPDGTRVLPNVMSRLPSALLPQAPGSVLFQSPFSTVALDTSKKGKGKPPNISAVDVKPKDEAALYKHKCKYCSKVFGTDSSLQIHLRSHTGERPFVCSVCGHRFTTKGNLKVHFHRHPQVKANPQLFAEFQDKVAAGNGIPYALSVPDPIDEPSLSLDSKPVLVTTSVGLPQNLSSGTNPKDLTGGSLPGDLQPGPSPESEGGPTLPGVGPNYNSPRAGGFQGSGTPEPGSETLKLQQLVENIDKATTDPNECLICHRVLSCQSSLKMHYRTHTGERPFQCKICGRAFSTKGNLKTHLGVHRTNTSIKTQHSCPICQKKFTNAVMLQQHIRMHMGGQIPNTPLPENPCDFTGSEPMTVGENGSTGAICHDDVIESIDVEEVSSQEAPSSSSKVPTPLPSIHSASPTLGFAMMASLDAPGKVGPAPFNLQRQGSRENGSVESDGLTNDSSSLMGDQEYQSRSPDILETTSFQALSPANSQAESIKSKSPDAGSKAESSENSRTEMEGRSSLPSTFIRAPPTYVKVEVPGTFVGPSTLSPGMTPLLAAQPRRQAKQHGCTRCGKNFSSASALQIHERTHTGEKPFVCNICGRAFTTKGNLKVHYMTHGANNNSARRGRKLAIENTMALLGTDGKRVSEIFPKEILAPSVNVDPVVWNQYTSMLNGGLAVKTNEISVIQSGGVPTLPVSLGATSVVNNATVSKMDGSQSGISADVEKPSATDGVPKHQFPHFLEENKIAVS
Setting: 8-mer, flanks averaged, mean of replicates
| Strand | E-score |
| --- | --- |
| AAACAGTC | 0.0087 |
| AAGACTCA | -0.0529 |
| CCATAGCA | 0.106 |
| ATACCGCC | -0.13 |
| GAGCCGAA | -0.0998 |
| CCAGCTGC | -0.386 |
| ACGATAAC | 0.102 |
| TCCCAGGA | -0.266 |
| AAGGCCCG | -0.409 |
| GCCTGATA | -0.0325 |
| AACTTCAC | 0.134 |
| ACTATGAG | 0.114 |
| CCAAAATA | 0.348 |
| ACTGAAAG | 0.0396 |
| TACGGTCA | -0.0651 |
| TAAGCGAA | 0.0831 |
| ACGGATTC | -0.0328 |
| ACGGGTGG | -0.327 |
| GCGATAGA | -0.0906 |
| ACTTTACG | 0.217 |
| CCAATACA | 0.216 |
| AGAGATAG | 0.146 |
| GATCCCGA | -0.207 |
| CATCCTAC | 0.00571 |
| TCTGAAGA | -0.0435 |

Study 2 — technique: competition protein-binding microarray; form: double-stranded DNA, one strand shown; medium: in vitro; tested at: 2 µM; together with: Cbf1 competitor, 0.05 µM; direction: higher = stronger binding; constant ends, left off below: … GTCTTGATTCGCTTGACGCTGCTG
Target: Phosphate system positive regulatory protein PHO4, full length, GST-tagged (PHO4, Saccharomyces cerevisiae, UniProt P07270, residues 1-312)
Setting: whole 60-bp probe, lowest competitor level
Residues (chain): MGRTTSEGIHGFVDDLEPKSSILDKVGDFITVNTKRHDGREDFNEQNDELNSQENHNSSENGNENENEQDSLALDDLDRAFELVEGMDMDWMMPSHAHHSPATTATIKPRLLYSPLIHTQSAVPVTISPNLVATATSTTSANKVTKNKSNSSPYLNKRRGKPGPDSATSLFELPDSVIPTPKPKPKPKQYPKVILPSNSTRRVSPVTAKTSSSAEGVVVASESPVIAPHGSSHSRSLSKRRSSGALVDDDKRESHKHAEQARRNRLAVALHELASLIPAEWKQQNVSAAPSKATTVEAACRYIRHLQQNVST
| Strand | fluorescence intensity [a.u.] |
| --- | --- |
| CAACTACGCTGGATCGACGTGGGACTGGCAGGGAAG | 4710 |
| TAATATAACGCCTTTATCGTGGGACTCTTATTAACC | 5010 |
| GATGCCCTGCACCTTCGCGTGAGGAAAAGCAAAAAG | 4990 |
| ACTAATGCAGGCAGAAGGAGATCCATACCTTCAAAT | 3740 |
| CAGGGCACCGGTGCCGTCGTGATGGCCTCGTTGATT | 6040 |
| GGGTCATTTCTCTTTACTGAATATTATGAACGAGTT | 4020 |
| GTCTTGTCTCATTGATATGTGGGTGTCCCCACTTCA | 4900 |
| GCTCTTCATACCCCTCCCGTGGAACTAGTTCGGAAG | 5690 |
| CTTCTGTAAATTTGTCACTTAACTTGACGCGCCCCG | 2920 |
| CTTCTGTAAATTTGAGCAGTGGGTGGACGCGCCCCG | 4220 |
| CTAACGAAGGTTTGATGTGTGGGTGACAAGCCAAGT | 5460 |
| CTTTTCCGGTTGAGACTTGAGCAAGTGCTTCAGTTT | 3610 |
| CGGGGTTAAGTTTGTCACCACACTTGCTTGCAGCAG | 4290 |
| ATTGTCCCTTTCCATCACGTGTGGATTTAAGTAGCT | 15200 |
| TGCGCAACAACTTGACCGGTGGGTGTATGTCTAGAA | 4560 |
| CCAGGCCTCCAAGCCCACGTGACAACAAGCTCCGCC | 17200 |
| ATATGCGATTTCCATCACGATATGTCAATTATAGGC | 6060 |
| CTTTCCCGATCTTGTCACCTGACTTTAGCACATTTG | 4330 |
| GCACCTCATCTAGCGGAGGTGCAGGGATGTACCAAC | 3130 |
| GGAGATGCCAGAAAAAGCGTGGGTACTGGTCTGGTT | 8530 |
| GTATTAGGTTGTCTGATCATGACGCTGTCCCCTACG | 4630 |
| GTAACTTTACCGTCCCACGTGTCCAAAGGTACGCTG | 19200 |
| TGGGCCATTGGCCTTGATGTGATGAACAACAGACTT | 2950 |
| GGTGGAAATAACAAAAGCGTGACGGCAAAGAAGCAA | 7440 |
| ATGCAAATGCCTCACCACGTGCAAATGTGAAAAGAG | 19100 |

Study 3 — technique: RNA Bind-n-Seq; form: RNA; medium: in vitro; tested at: not given; baseline: input RNA pool; direction: higher = stronger binding
Target: RING finger protein unkempt homolog, zinc fingers 1-6, GST-SBP tag (UNK, Homo sapiens, UniProt Q9C0B0, residues 30-357)
Setting: RNA with constant flanks, human and mouse sites, ends assumed
Constant ends, left off below: GGGAGUUCUACAGUCCGACGAUC … CAACAGAGGAUUGAGCAUCA
Target sequence (chain): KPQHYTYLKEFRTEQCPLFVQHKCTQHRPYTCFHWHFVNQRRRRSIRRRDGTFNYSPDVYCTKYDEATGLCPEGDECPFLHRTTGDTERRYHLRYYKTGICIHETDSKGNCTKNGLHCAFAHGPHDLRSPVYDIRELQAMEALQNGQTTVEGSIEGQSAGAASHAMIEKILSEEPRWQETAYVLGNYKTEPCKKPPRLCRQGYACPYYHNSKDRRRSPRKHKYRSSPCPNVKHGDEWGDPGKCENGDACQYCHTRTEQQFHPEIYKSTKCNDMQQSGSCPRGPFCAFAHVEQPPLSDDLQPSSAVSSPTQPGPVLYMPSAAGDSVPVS
| Strand | bound/input enrichment [ratio] |
| --- | --- |
| CACCGUUUCCUUGUCUAUAAUCCUCUCUCCUUCUGUUUAACUCAUACACGAGCUUCCUUCACUUACCGUCUGCUGUGCUCUGACGUCACAGCAUUUACCGUUUGGUCAGCUGGGAUGCUG | 0.344 |
| AAUUUGUCUUGUGAUUUUAAACUUAUGAGUCAAGAAGGGUCUCUUCCUUUAUCAUUGCCUUUUAGGAAAUUUUCCACAUCUUUCAGUGUUUGAACUUACUUGUGCUUGAGAUUCUACAGU | 0.186 |
| GGCGGCAUUCCAGAGUCUGCUGGACGCCCAGGCGGACGAGGCCGUGUUAGAUCAUCCAGACUUGAAACAUAUCGACCCAGUGGUUUUAAAACAUUGUCAUGCAGCAGCUGCAACUUACAU | 0.201 |
| AUUGAAACAAAAGUGUUAUCAGAGCUCGGUGUAGAUGCCCAGAGUCUUUCAGCCAUGGAGAUCAGGGAGAAAGCCAGAUCAUUUGCUCAGGCAGCCAUUGAAAAGCAGAAAUCGGCGUUU | 0.0645 |
| CAUUCUGAAUUUCAUAUAGUAUAAGUUAGACAUUGCUUAAUCCUUUUUUAAAUGUAUUUACAUAGACACGAACACUCAAAUUGUUGGAUUUUUAAAACUAUAUCUGACAUAAUUUUUUUC | 11.7 |
| UGGACUGGGGAGUGGCCUGAGACGGAAAUCGUUGCUAAUCUGUGGAUGAAGCAGCCUGAUGCGGCCAGGAAGGAGAGCGAGUUCCUGCUAAACUCUUGUCCGGAGCGACUGCUAGGCCAC | 0.088 |
| AGACAUGUCUGAGGACAUGCAACAGGAUGCCGUUGACUGCGCCACGCAGGCCAUGGAGAAGUACAAUAUAGAGAAGGACAUUGCUGCCUAUAUCAAGAAGGAAUUUGACAAGAAAUAUAA | 0.49 |
| UAUGAUCAAGUUCUUGUGGAGUCAGACAAUGAGAACCGCAUGGAGGAGAGCAAAGCACUCUUUAGAACAAUUAUCACCUACCCCUGGUUCCAGAACUCCUCUGUGAUUCUGUUCUUAAAC | 0.357 |
| GCUCCACAGUUAGGAGGUAGCUUUGCAGUUUGGGGAGGGCUGUUUUCCAUGAUUGACUGUAGUAUGGUUCAAGUCAGAGGAAAGGAAGAUCCCUGGAACUCCAUCACAAGUGGUGCCUUA | 0.217 |
| GAACACAGUAUGUAGGUCAAACUGGCAGUAACAGUGUACAGCCUUUGACAAACUAGAAAUAUUAGAGUAGGCCAAACACACCUCCAAACUGUAAGGCUGUGCACAAACAUAAAAAAUGGC | 6.59 |
| UUUUAACAAAUGUUUUCAUUUACAGGAAAACGCAAAGAAAAUUUUGAAACGAUGGUCUUUCUUUUUAAUUAUUAUUUUAAGUGUUUUUUGUAAGACAAAAAUUGAAGUUUUUUUAAGGUU | 0.615 |

Study 4 — technique: RNA Bind-n-Seq; form: RNA; medium: in vitro; tested at: 365 nM; baseline: no-protein control; direction: higher = stronger binding
Target: RNA binding protein fox-1 homolog 2, RRM domain, GST-SBP tag (RBFOX2, Homo sapiens, UniProt O43251-10, residues 100-194)
Setting: natural RNA segment, single round, ends assumed
Constant ends, left off below: GGGAGUUCUACAGUCCGACGAUC … UGGAAUUCUCGGGUGCCAA
Construct (chain): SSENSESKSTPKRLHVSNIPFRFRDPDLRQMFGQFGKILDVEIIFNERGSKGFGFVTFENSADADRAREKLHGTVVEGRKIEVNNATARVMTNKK
| Strand | RBNS enrichment (R) |
| --- | --- |
| UCUUCUGGUGAGACAUCCUCUGUCCCGGGUCCCAUUUCCCCACCUGUAACUGAGGUUAGGAAAAGAUGUGCCCUUCCUUCCUCCCAGCCUUUCUCCCCUCUGCUUCCUCA | 0.546 |
| CAACUCAUGCCACAGUAUGUCGUCUUCAUGUGUCUUGCAAUGAACUGUUUCAGUAGCCAAUCCUCUUUCUUAGUAUAUGAAAGGACAGGGAUUUUUGUUCUUGUUGUUCU | 1.32 |
| AGCAUAUAUUUAUAUGAUAAGUUUAGAUUAUGAGCGUGAGUACCAAUUAAGUUUGAAUGAAUGCCCCUUUUAUGUAGAGUGCUGGUCCCCAGUCAUUGCUGUCUGCAAGU | 0.378 |
| UAGCUUUGGUUUAAUAUGCCACUGCUUUGUCUUUCUGUUACACAUACAGUUUUGAUUUAUUUACAAUAUAUGCUGUGCCAUUUUGAUUUUUAUAUUGUUUGGUUGGUUGA | 0.581 |
| AGCCUUUGAGAGAGAUUGAGAAAGGAGGCCCGCUUUGAGGCUAGCUGGGCUACGCGGUGAGGCCCUGUCUCACAGAGGCAGGGAGAGUGUUUUACUGGAAAAGCUGCAGU | 0.556 |
| ACACCGAAUGAAUGCAUCUCUGGGAGCUGGCACCACAACCCUGAUGUAUAGGCUGUGUUGGUUUAUGGAGACAAGUUGCAUCAAUGAAUUCACCUAGCAUAGGCUCUUUG | 1.17 |
| AAGGUAAGGCGGGGAGUGACUGAAUAAACUCUGCCUUUUAAAUUGAGCAUCUGGGCCGGGCAUGGUGGCUCACGCCUGUAAUCCCAGCACUCUGGGAGGUCGAGGUGGGU | 5.37 |
| UUGAGAAGCUGCAGGGAGCAGGGCACCAAGGGAGUGUGCACUGUGCUUGCUCAGAGAGGCCAAACCCUGCUCCCAGGCUGAAGCCUGGAGUCUGCCCCCACUUCCCUUUU | 0.279 |
| UUUUCCCAGUAUUUCCUGAAUUUGCCCGUGCAGGUGUGUGACCCUCCCUGAGCAUCUGGAGACACCUGGAGCAUGAAACCUUCUGUAAUCGCUGAGAUCUGUAACUUACA | 26.5 |
| AUUUAAAUGUUUCUAGUAACCACAUUUUUUUAAAAGUAAAAAGAAACCCAUGGUAUUGAUUUAAAUAUAUUUUAUUUAACCCAAUAGCUCAAAAACACUAUCAUUUCAAC | 0.448 |
| AGGAAAAGAGAGAAAAAGGCAAAGCAAGGUUGUGGCCUUAGGUUGGACCUGGAAUAUCCCUUAUUGCCUAUAAUGGAAUAUGUGACACUGUGGGUGAAAUGUUCUACACA | 1.16 |
| GUGAUGGCCCCAUUUUUACAGUUUUCCACAUGCUGGGGAGCCUAGGCCAAGCUGGUCACAAGUGGUCACUUACUCUUGCCAUUCUUCAUGAACCAAACCAACUGUGUGAC | 0.29 |
